Experimental data from different studies.
Every numbered part comes from another study and shows a few of its results, in no order. Substitutions count along the parent as printed.

Series 1 — target: CCNB2, cyclin fold, Cln2 fusion (human); method: yeast growth competition, sequencing; matrix: yeast; notes: weak parent motif; reference: not given; reading: higher = stronger binding; quantity: normalised enrichment score
Starting sequence: CDKN1C docking peptide (human); TSACRSLFGPVDH; partner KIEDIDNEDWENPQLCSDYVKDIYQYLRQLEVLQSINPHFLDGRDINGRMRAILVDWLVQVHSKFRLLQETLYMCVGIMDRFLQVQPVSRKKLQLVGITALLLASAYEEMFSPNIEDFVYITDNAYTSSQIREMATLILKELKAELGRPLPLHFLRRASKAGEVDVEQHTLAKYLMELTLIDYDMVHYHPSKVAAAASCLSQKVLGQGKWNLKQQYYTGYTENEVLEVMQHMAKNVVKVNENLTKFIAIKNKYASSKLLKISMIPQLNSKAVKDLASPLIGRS
S2A: 0.0688
V11A: 0.142
R5A L7A: -0.132
R5K: 0.347
R5A: -0.302
R5K F8L: 0.111
F8A: 0.152
S6A: -0.102
T1A: 0.284

Series 2 — target: CREB3L3, bZIP domain (human); method: DHFR protein complementation; matrix: yeast; reference: wild-type JUN-FOS pair; reading: higher = stronger binding; quantity: binding fitness
Notes: single substitutions, most at no-binding floor
Starting sequence: JUN, bZIP domain (human); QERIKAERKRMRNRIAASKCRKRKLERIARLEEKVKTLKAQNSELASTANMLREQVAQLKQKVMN; partner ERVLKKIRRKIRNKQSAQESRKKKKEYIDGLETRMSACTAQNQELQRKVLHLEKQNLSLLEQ
M51K: -1.5 natural log
V35A: -1.47 natural log
I28L: -1.41 natural log
T37M: -0.778 natural log
I28Q: -1.38 natural log
V56M: -1.43 natural log
V35K: -1.48 natural log
L38V: -1.49 natural log
L38T: -1.49 natural log
L45Q: -1.5 natural log
L45C: -1.52 natural log
A49S: -1.5 natural log
T37Y: -1.4 natural log
Q55S: -1.55 natural log
V35C: -1.34 natural log
K39R: -1.35 natural log
A40P: -1.51 natural log
E54V: -1.52 natural log
E44A: -1.37 natural log
A40W: -1.46 natural log
L52Q: -1.53 natural log
Q41S: -1.54 natural log
A29W: -1.37 natural log
R30Y: -1.46 natural log
K36C: -1.01 natural log

Series 3 — method: RNA Bind-n-Seq; molecule type: RNA; matrix: in vitro; concentration: not given; notes: 4-mer, random 30-nt RNA, single round; together with: RocA, ADP, phosphate; reference: input library; reading: higher = stronger binding; quantity: 4-mer enrichment
Target: Eukaryotic initiation factor 4A-I (EIF4A1, Homo sapiens, UniProt P60842, residues 1-406, full length assumed)
UniProt P60842, sequence (whole entry, looked up): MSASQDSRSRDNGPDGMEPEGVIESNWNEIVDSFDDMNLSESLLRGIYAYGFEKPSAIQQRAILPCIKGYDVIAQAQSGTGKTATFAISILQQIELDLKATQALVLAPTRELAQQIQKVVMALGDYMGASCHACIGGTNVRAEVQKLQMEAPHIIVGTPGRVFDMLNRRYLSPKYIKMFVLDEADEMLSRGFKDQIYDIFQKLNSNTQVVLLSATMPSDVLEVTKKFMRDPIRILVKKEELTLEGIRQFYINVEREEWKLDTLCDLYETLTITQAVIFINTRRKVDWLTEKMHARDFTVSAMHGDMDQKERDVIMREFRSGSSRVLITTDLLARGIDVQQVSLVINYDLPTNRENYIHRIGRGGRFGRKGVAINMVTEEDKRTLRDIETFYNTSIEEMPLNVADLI
CCCU: 0.597 fold
GUUG: 1.22 fold
GAUA: 0.999 fold
UCGU: 0.687 fold
ACGA: 1.05 fold
CGGU: 0.758 fold
GAAU: 1.46 fold
UAAA: 1.05 fold
GCCC: 0.637 fold
AAGC: 0.925 fold
GAGG: 2.07 fold
UAUG: 1.04 fold
GUCG: 0.903 fold
AGAU: 1.39 fold
AUUA: 0.947 fold
UCCU: 0.536 fold

Series 4 — method: RNA Bind-n-Seq; molecule type: RNA; matrix: in vitro; concentration: 1 µM; notes: whole 134-nt RNA, ends assumed; together with: 150 mM KCl; reference: input library; reading: higher = stronger binding; quantity: log2 enrichment
Target: Ras GTPase-activating protein-binding protein 1, RRM domain (G3BP1, Homo sapiens, UniProt Q13283)
UniProt Q13283, sequence (whole entry, looked up): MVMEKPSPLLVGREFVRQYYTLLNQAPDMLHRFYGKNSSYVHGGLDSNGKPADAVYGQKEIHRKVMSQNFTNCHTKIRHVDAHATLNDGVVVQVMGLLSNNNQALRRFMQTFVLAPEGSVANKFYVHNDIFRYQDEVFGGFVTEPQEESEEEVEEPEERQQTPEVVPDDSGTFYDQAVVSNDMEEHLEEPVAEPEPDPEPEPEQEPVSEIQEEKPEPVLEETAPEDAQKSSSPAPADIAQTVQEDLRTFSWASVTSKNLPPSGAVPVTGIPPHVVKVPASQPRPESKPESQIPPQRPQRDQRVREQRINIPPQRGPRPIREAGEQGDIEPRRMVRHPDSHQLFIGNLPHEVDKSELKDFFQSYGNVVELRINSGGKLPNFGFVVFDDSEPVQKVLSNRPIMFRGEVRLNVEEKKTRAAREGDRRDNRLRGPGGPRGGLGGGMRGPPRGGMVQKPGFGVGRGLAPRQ
Shared flanks, not repeated: GGGAGUUCUACAGUCCGACGAUC … UGGAAUUCUCGGGUGUCAAGG
AAGUCCUGUGCUACACAUCGUAUGUACCGAAUCGGAAAAAAAGGAAAGGAAAAAGGAAAGUAUUAUGUUACGCCGUUCGGAUCUGCACUU: -0.0647
AGGUCAUGGAUCAAAAAGAACAUAAAUUGAAUGGGAAGGUGAUUGAUCCUAAAAGGGCCAAAGCCAUGAAAACAAAAGAGCCGGUUAAAA: -0.101
AAGUCCUGUGCUACACAUCGUAUGUACCGAAUCGGCCCCGGGGCCCCGGGCCCCGGGAAAGUAUUAUGUUACGCCGUUCGGAUCUGCACU: -0.752
CCUCAAGUCCUGUGCUACACAUCGUAUGUACCGAAUCGGUUGGGUUGGUUGGGAAAGUAUUAUGUUACGCCGUUCGGAUCUGCACUUCCA: -0.275
UCAAGUCCUGUGCUACACAUCGUAUGUACCGAAUCGGGGAGGGGAGGGGUGGGGAAAGUAUUAUGUUACGCCGUUCGGAUCUGCACUUCC: 1
CAAGUCCUGUGCUACACAUCGUAUGUACCGAAUCGGGUUUGGGUUUGGGUUUGGGAAAGUAUUAUGUUACGCCGUUCGGAUCUGCACUUC: 0.769
CUCAAGUCCUGUGCUACACAUCGUAUGUACCGAAUCGGGUUUGGUUUGGUUUGGAAAGUAUUAUGUUACGCCGUUCGGAUCUGCACUUCC: -0.29
CACAGACAACACGCACCCACACAGACACAGAGGGAAGGGGGUGGGAUGGGGACAGGGUGCACAGCAGGGCGGGGUAGGACCCCAGCCCCU: 0.414
UCCUGUGCUACACAUCGUAUGUACCGAAUCAAACCCCCCCAAACCCCCAAAUUUUUAAAAAAGUAUUAUGUUACGCCGUUCGGAUCUGCA: -0.0776

Series 5 — method: competition protein-binding microarray; molecule type: double-stranded DNA, one strand shown; matrix: in vitro; concentration: 2 µM; together with: Pho4 competitor, 0.05 µM; reading: higher = stronger binding; quantity: fluorescence intensity; shared flanks, not repeated: … GTCTTGATTCGCTTGACGCTGCTG
Target: Centromere-binding protein 1, full length, His-tagged (CBF1, Saccharomyces cerevisiae, UniProt P17106, residues 1-351)
UniProt P17106, sequence (whole entry, looked up): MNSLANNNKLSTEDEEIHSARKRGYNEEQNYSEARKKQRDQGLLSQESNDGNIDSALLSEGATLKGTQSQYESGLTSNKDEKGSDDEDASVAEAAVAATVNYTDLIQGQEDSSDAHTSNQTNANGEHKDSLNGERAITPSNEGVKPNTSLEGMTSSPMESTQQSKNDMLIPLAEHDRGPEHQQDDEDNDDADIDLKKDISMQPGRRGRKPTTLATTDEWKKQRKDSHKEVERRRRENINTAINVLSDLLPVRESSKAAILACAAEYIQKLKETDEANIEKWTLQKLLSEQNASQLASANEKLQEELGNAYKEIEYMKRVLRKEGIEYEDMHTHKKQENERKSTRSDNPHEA
Notes: whole 60-bp probe, lowest competitor level
CGGGCCGTTCCGCGGGATGTGACGCTTCGCAAGTTA: 58.6 a.u.
AATCGCGATCCCCATCACGTTCTTTAGCCTCATTAT: 233 a.u.
CCATGCCCGGGTACCCACGGCTCCTCGGAGGCCGGG: 50.7 a.u.
GTATTTCCGGTATCGCACGTGGTGATGGATTTGATC: 1060 a.u.
TCGGTCTTCTTGATGCTCGTGAACGCCATTTGGTCC: 93.2 a.u.
GATCGATCGAATTTCCCCGTGCCGAAATTGTTCTGC: 103 a.u.
AATTGAAACCTCCGTCACGTTTTCTGATAATGTTGC: 650 a.u.
GTGTGTATACAAAGAAGAGAGGTGTTAGACCAGTAT: 100 a.u.
CTAACGAAGGTTTGATCAGTGGGTGACAAGCCAAGT: 64.6 a.u.
GTCTTGTCTCATTGGGCCGTGGGTGTCCCCACTTCA: 71 a.u.
CGTCCTAGTGATTGCACCGTGGGTGCCATGAGGAAG: 75.2 a.u.
CGCATTATGTTAAGCATTGCCATTGCGGTAACTTCA: 68.7 a.u.
ATATAAAGTTGTCCTCACATGCGGCGTCCATTGTTC: 163 a.u.
TCAACTGGTCTAGCCCATGTGTCTTTAGTTTCCAAG: 88.1 a.u.
CAGTTGTTACAGTTGCCCGTGAAGGTAGCAATGAAC: 86.4 a.u.
AAGATGGCAGACGACCACGTGTAGGATCCCTAGTTC: 697 a.u.
CGGGGTTAAGTTTGACTCGTGGGTGGCTTGCAGCAG: 83.6 a.u.
CCGATTGGTTACAGTTCCGTGATGGGCAAGATTACT: 66.2 a.u.
TACTATAGGGGCCGACACGTTAGGTGATGACGATAA: 57.2 a.u.

For quick reference, copied from above (series 5):
TCGGTCTTCTTGATGCTCGTGAACGCCATTTGGTCC: 93.2 a.u.
GATCGATCGAATTTCCCCGTGCCGAAATTGTTCTGC: 103 a.u.
AATTGAAACCTCCGTCACGTTTTCTGATAATGTTGC: 650 a.u.
GTGTGTATACAAAGAAGAGAGGTGTTAGACCAGTAT: 100 a.u.
CTAACGAAGGTTTGATCAGTGGGTGACAAGCCAAGT: 64.6 a.u.
GTCTTGTCTCATTGGGCCGTGGGTGTCCCCACTTCA: 71 a.u.
CGTCCTAGTGATTGCACCGTGGGTGCCATGAGGAAG: 75.2 a.u.
CGCATTATGTTAAGCATTGCCATTGCGGTAACTTCA: 68.7 a.u.
ATATAAAGTTGTCCTCACATGCGGCGTCCATTGTTC: 163 a.u.
TCAACTGGTCTAGCCCATGTGTCTTTAGTTTCCAAG: 88.1 a.u.
CAGTTGTTACAGTTGCCCGTGAAGGTAGCAATGAAC: 86.4 a.u.
AAGATGGCAGACGACCACGTGTAGGATCCCTAGTTC: 697 a.u.
